Measurements collected from several papers.
Each numbered part is a random draw from the data of one study; scales do not carry over between parts. Substitutions count along the parent as printed.

Block 1 — technique: DHFR PCA, deep sequencing; sample: yeast; with: (+)-ABA 0.0091 µM; baseline: wild-type fitted maximum; direction: higher = stronger binding
Target: ABI1, truncated, D143A, DHFR fusion (Arabidopsis thaliana)
Setting: methotrexate growth selection, single substitutions
Starting sequence: PYL1, truncated, DHFR fusion (Arabidopsis thaliana); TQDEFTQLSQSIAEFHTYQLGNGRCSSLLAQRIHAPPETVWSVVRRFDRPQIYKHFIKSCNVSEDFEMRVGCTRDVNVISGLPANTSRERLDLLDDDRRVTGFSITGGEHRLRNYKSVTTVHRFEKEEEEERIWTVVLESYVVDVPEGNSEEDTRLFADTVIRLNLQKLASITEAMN; partner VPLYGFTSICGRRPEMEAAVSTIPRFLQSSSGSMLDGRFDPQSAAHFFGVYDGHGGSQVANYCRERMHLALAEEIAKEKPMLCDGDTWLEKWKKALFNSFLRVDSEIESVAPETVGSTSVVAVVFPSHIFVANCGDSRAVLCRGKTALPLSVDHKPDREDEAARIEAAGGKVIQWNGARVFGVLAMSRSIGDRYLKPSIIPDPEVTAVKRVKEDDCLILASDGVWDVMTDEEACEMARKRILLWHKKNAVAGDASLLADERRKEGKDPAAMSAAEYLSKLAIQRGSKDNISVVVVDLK
`E125Q` — result for “relative binding score”: 45.2%.
`S80F` — result for “relative binding score”: 64.3%.
Under “relative binding score”, `F66M` is recorded as -1.52%.
`E130D` — result for “relative binding score”: 44.7%.
For `F47W`, “relative binding score” read 6.52%.

Block 2 — target: CCNA1, cyclin fold, Cln2 fusion (human); technique: yeast growth competition, sequencing; sample: yeast; setting: weak parent motif; baseline: not given; direction: higher = stronger binding
Starting sequence: CDC25A docking peptide (human); PPHRRRLLFACSP; partner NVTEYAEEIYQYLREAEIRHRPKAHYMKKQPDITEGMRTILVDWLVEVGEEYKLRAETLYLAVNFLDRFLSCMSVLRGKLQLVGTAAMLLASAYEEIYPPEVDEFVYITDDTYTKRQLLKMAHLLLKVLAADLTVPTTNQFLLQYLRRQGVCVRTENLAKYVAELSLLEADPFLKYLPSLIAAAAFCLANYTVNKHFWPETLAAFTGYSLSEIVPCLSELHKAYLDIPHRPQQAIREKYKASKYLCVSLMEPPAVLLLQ
`PPHRRRHLFACSP [L7H]`: “normalised enrichment score” 0.0228.
Under “normalised enrichment score”, `PPHRRRLLFAWSP [C11W]` is recorded as -0.0452.
For `PPLRRRLLFACSP [H3L]`, “normalised enrichment score” read 0.259.
For `PPHRRRLLFACHP [S12H]`, “normalised enrichment score” read 0.207.
Under “normalised enrichment score”, `PPHRMRLLFACSP [R5M]` is recorded as 0.241.
Under “normalised enrichment score”, `PPHMRRLLFACSP [R4M]` is recorded as 0.123.
Under “normalised enrichment score”, `PPHRRRLLFMCSP [A10M]` is recorded as 0.407.
For `PPHRRRLLFCCSP [A10C]`, “normalised enrichment score” read 0.117.

Block 3 — technique: protein binding microarray; form: double-stranded DNA, one strand shown; sample: in vitro; tested at: not given; baseline: not given; direction: higher = stronger binding
Target: Histone acetyltransferase KAT6A, winged helix 1, GST fusion (KAT6A, Homo sapiens, UniProt Q92794, residues 1-85)
Setting: 8-mer, flanks averaged, mean of 2 arrays, mostly near background
Target sequence (chain): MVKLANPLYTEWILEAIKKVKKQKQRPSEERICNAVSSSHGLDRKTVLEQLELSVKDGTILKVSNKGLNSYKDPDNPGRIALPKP
`AGATGATG` gave an E-score of -0.145.
With `GAAGCTCA` the E-score was -0.213.
The E-score of `GATACCAA` is reported as 0.0849.
The E-score of `AGTAAATG` is reported as -0.0733.
`GTTGACAA` gave an E-score of -0.0537.

Single results of other studies
With `PhoQ, residues 284 288 289 292 302 303 AEGLLW` the fold induction was 12.3 (PhoP, residues 12 14 15 18 19 IFFTR (Escherichia coli, UniProt P23836); Sort-seq, measured: YFP reporter; E. coli; PhoQ-PhoP variant library, with: 10 µM Mg2+; baseline: high Mg2+ state, higher = stronger signaling).

Repeated from above (block 1):
For `F47W`, “relative binding score” read 6.52%.
